Experimental data from different studies.
Lines come from different studies, so protocols differ. ± marks the error that the study gave.

| SMILES | test | system | conditions | measurement | value |
| --- | --- | --- | --- | --- | --- |
| CC[C@H](C)[C@H](NC(=O)[C@H](CCCCN)NC(=O)CNC(=O)[C@H](CC(C)C)NC(=O)[C@H](Cc1ccccc1)NC(=O)[C@H](CCCCN)NC(=O)[C@H](CO)NC(=O)[C@H](Cc1ccccc1)NC(=O)[C@H](Cc1c[nH]c2ccccc12)NC(=O)[C@H](CCC(N)=O)NC(=O)[C@@H](NC(=O)[C@H](Cc1ccccc1)NC(=O)CCCCCNC(=O)CN1CCN(CC(=O)O)CCN(CC(=O)O)CCN(CC(=O)O)CC1)C(C)C)C(=O)N[C@@H](CCC(=O)O)C(=O)N1CCC[C@H]1C(=O)N[C@@H](CC(=O)O)C(=O)N[C@H](C(=O)N[C@@H](CO)C(=O)N[C@@H](CCC(N)=O)C(=O)N[C@H](C(=O)N[C@@H](CCC(N)=O)C(=O)N[C@@H](CC(=O)O)C(=O)N1CCC[C@H]1C(=O)N[C@@H](CC(N)=O)C(=O)N[C@@H](CC(=O)O)C(=O)N[C@@H](CCC(N)=O)C(=O)N[C@@H](Cc1ccc(O)cc1)C(=O)N[C@@H](CCC(=O)O)C(=O)N1CCC[C@H]1C(=O)N[C@@H](Cc1ccccc1)C(=O)O)C(C)C)C(C)C [copper-64 labelled] |  | C57BL/6 mice, male, naive, white fat | 4 h | tissue uptake | 0.3 ± 0.04 %ID/g |
| CCOP(=O)([O-])CNC(=O)CN1CCN(CC(=O)NCP(=O)([O-])OCC)CCN(CC(=O)NCP(=O)([O-])OCC)CCN(CC(=O)NCP(=O)([O-])OCC)CC1.[177Lu+3] |  | Sprague-Dawley rat, muscle | intravenous (tail vein), dose not given, 2 h | tissue uptake | 0.007 ± 0.003 % injected dose/g |
| CCCC[C@H]1C(=O)N(C)[C@@H](CCCC)C(=O)N[C@@H](CCCNC(=O)CN2CCN(CC(=O)O)CCN(CC(=O)O)CCN(CC(=O)O)CC2)C(=O)N[C@H](C(=O)NCC(N)=O)CSCC(=O)N[C@@H](Cc2ccc(O)cc2)C(=O)N(C)[C@@H](C)C(=O)N[C@@H](CC(N)=O)C(=O)N2CCC[C@H]2C(=O)N[C@@H](Cc2c[nH]cn2)C(=O)N[C@@H](CC(C)C)C(=O)N(C)CC(=O)N[C@@H](Cc2c[nH]c3ccccc23)C(=O)N[C@@H](CO)C(=O)N[C@@H](Cc2c[nH]c3ccccc23)C(=O)N1C [gallium-68 labelled] |  | NOD/SCID mice, CHO-hPD-L1 xenograft, skin | 60 min, added: blocking agent 50 µg co-injected | tissue uptake | 12 ± 2.53 %ID/g |
| Cc1ccccc1-c1ccc(-c2nc(-c3ccc(CN(C)CCCC(=O)O)c([18F])c3)no2)cc1C(F)(F)F |  | Sprague Dawley rats, male, pancreas | 120 min | tissue uptake | 0.32 ± 0.16 %ID/g |
| CN1Cc2cc(Cl)ccc2-n2c(nnc2C2CCN(c3cccc([18F])n3)CC2)C1 |  | C57BL/6 mouse male, blood | intravenous, dose not given, 30 min, added: blocking agent 10 mg/kg | tissue uptake | 3.01 ± 0.8 %ID/g |
| CC(C)C[C@@H](NC(=O)[C@@H](CCCNC(=N)N)NC(=O)[C@@H](Cc1c[nH]cn1)NC(=O)[C@@H](Cc1c[nH]c2ccccc12)NC(=O)[C@@H](Cc1c[nH]cn1)NC(=O)[C@@H](Cc1ccccc1)NC(=O)[C@H](NC(=O)[C@@H](Cc1ccc(O)cc1)NC(=O)CNC(=O)CNC(=O)CCOCCOCCOCCNC(=O)CN1CCN(CC(=O)O)CCN(CC(=O)O)CC1)[C@H](C)O)C(=O)N[C@H](CC(N)=O)C(=O)N1CCC[C@@H]1C(=O)O [gallium-68 labelled] | gamma counting | C57BL/6 mice, male, stomach | intravenous, 1.85 MBq, 30 min | tissue uptake | 1.24 ± 0.34 %ID/g |
| O=C1NC2(CC2)COc2ncc(F)cc2[C@H]2COCCN2c2ccn3ncc1c3n2 |  | Sprague-Dawley rats, male, blood | oral, 5 mg/kg/day, end of recovery, 4-week subacute toxicity | APTT | 19.3 ± 1.4 s |
| CSCC[C@H](NC(=O)CNC(=O)[C@H](CCCCN)NC(=O)[C@H](CC(C)C)NC(=O)[C@@H]1CCCN1C(=O)[C@H](CO)NC(=O)[C@H](Cc1c[nH]cn1)NC(=O)[C@H](Cc1c[nH]c2ccccc12)NC(=O)[C@H](CCCNC(=N)N)NC(=O)[C@H](CC(C)C)NC(=O)[C@H](CCCNC(=N)N)NC(=O)[C@H](Cc1c[nH]c2ccccc12)NC(=O)[C@H](CS)NC(=O)CCCCCNC(=O)CN1CCN(CC(=O)O)CCN(CC(=O)O)CCN(CC(=O)O)CC1)C(=O)O [copper-64 labelled] | ex vivo biodistribution | BALB/c nude mice, ovaries | intravenous, dose not given, 18 h, Huh-7 tumour-bearing | tissue uptake | 1.08 %ID/g |
| C[C@H](O)[C@@H](NC(=O)[C@H]1CCCN1C(=O)[C@@H](CCCCN)NC(=O)[C@@H](CO)NC(=O)[C@@H](Cc1ccc(O)cc1)NC(=O)[C@@H](CC(N)=O)NC(=O)CCOCCOCCOCCNC(=O)CN1CCN(CC(=O)O)CCN(CC(=O)O)CCN(CC(=O)O)CC1)C(=O)N[C@H](CC(=O)O)C(=O)N[C@H](CCCNC(=N)N)C(=O)N[C@H](CCC(N)=O)C(=O)N[C@H](Cc1ccc(O)cc1)C(=O)N[C@H](Cc1c[nH]cn1)C(=O)N[C@H](Cc1ccccc1)C(N)=O [copper-64 labelled] |  | C57BL/6J mice, brain | intravenous, 1.85 MBq, 1.333 h, radiolabelled | tissue uptake | 0.02 %ID/g |
| CC[C@H](C)[C@H](NC(=O)[C@H](CCCNC(=N)N)NC(=O)[C@H](CCCCN)NC(=O)[C@H](Cc1ccc(O)cc1)NC(=O)[C@H](CC(=O)O)NC(=O)[C@H](C)NC(=O)CNC(=O)CCOCCOCCOCCNC(=O)CN1CCN(CC(=O)O)CCN(CC(=O)O)CCN(CC(=O)O)CC1)C(=O)N[C@H](C(=O)N[C@@H](CC(C)C)C(=O)N[C@@H](CCCCN)C(=O)N[C@H](C(=O)N[C@@H](CC(N)=O)C(N)=O)C(C)C)[C@@H](C)O [copper-64 labelled] | ex vivo gamma counting | C57BL/6J male mice, B16-F10 tumour, thymus | intravenous, 1.85 MBq, 5 min | tissue uptake | 1.15 ± 0.278 %ID/g |

Some of these lines once more:
| SMILES | test | system | conditions | measurement | value |
| --- | --- | --- | --- | --- | --- |
| CSCC[C@H](NC(=O)CNC(=O)[C@H](CCCCN)NC(=O)[C@H](CC(C)C)NC(=O)[C@@H]1CCCN1C(=O)[C@H](CO)NC(=O)[C@H](Cc1c[nH]cn1)NC(=O)[C@H](Cc1c[nH]c2ccccc12)NC(=O)[C@H](CCCNC(=N)N)NC(=O)[C@H](CC(C)C)NC(=O)[C@H](CCCNC(=N)N)NC(=O)[C@H](Cc1c[nH]c2ccccc12)NC(=O)[C@H](CS)NC(=O)CCCCCNC(=O)CN1CCN(CC(=O)O)CCN(CC(=O)O)CCN(CC(=O)O)CC1)C(=O)O [copper-64 labelled] | ex vivo biodistribution | BALB/c nude mice, ovaries | intravenous, dose not given, 18 h, Huh-7 tumour-bearing | tissue uptake | 1.08 %ID/g |
| C[C@H](O)[C@@H](NC(=O)[C@H]1CCCN1C(=O)[C@@H](CCCCN)NC(=O)[C@@H](CO)NC(=O)[C@@H](Cc1ccc(O)cc1)NC(=O)[C@@H](CC(N)=O)NC(=O)CCOCCOCCOCCNC(=O)CN1CCN(CC(=O)O)CCN(CC(=O)O)CCN(CC(=O)O)CC1)C(=O)N[C@H](CC(=O)O)C(=O)N[C@H](CCCNC(=N)N)C(=O)N[C@H](CCC(N)=O)C(=O)N[C@H](Cc1ccc(O)cc1)C(=O)N[C@H](Cc1c[nH]cn1)C(=O)N[C@H](Cc1ccccc1)C(N)=O [copper-64 labelled] |  | C57BL/6J mice, brain | intravenous, 1.85 MBq, 1.333 h, radiolabelled | tissue uptake | 0.02 %ID/g |
